{"data": "Measured values gathered from unrelated publications", "note": "Parts stem from different laboratories: compare values within a part only."}
{"data": "Series 1", "target": "RNA binding protein fox-1 homolog 2, RRM domain, GST-SBP tag (RBFOX2, Homo sapiens, UniProt O43251-10, residues 100-194)", "method": "RNA Bind-n-Seq", "molecule type": "RNA", "matrix": "in vitro", "concentration": "365 nM", "setting": "natural RNA segment, single round, ends assumed", "relative to": "no-protein control", "reading": "higher = stronger binding", "constant ends, left off below": "GGGAGUUCUACAGUCCGACGAUC … UGGAAUUCUCGGGUGCCAA", "Target sequence (chain)": "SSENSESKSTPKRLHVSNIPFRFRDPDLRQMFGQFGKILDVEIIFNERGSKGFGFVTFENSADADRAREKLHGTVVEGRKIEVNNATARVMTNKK"}
{"Sequence": "AGUAAAUCGUAAAGAGAAAGGAAUUUAAGGGGUUGGAGAGAUGACUCAGUGGCUAAGAGAAUUGGCUGUUCUUCCAGAGGACCCAGGUUUGAUUCCUAGCAGCACAUAGA", "RBNS enrichment (R)": 1.62}
{"Sequence": "CACCACCAAAACCAGUUUAUGCAGUUGGACUCCAAGCUGUAACUUCCUAGAGUUGCACCCUAGCAACCUAGCCAGAAAAGCAAGUGGCAAGAGGAUUAUGGCUAACAAGA", "RBNS enrichment (R)": 0.374}
{"Sequence": "CUCCUUUAUCAGUUAGCUGUUUUAUCAUUAGGAUACAAGACAGCCCAGUGUCAUCAACAGUGAGCAAAUCUGGCAUGGUGUUUGUCUCGUACAGUUGGGAUAGGAGGCCA", "RBNS enrichment (R)": 7.12}
{"Sequence": "UAUUUUUCCCCUUAAAAUAGGAGAGAGCCAAAAUUGACCAAGGGUAUUCUGCAGCGAACCGGAGACCAAAGAGUUACCCCUACCCCUACCCCAUUCCACCCUCUCUGGGA", "RBNS enrichment (R)": 0.294}
{"Sequence": "CAAAGUAAGGGUUUUUUUUUUUAGCUUCCACUCUUCCGCAGACUUGGUCAUCGACCUAUUUUUGUUGAAGAAUGAAAGGCAAUGACAAGUUUAACAUAUACAAAUUCGUG", "RBNS enrichment (R)": 0.635}
{"Sequence": "UUGGCCUCCUGCCUGCUGUCAUGUGUCCCCCCUUUUGCUCCCCCUCCCCAUCCUGAUGCUUUCAUGUUGGUUCCUGACACAUGGUCUGGCUUUGGGUUUGAAGGGCAAGG", "RBNS enrichment (R)": 2.51}
{"Sequence": "GUGGCUCUUCCAGCCUGCAGGGACAGUAAAGGAAGCCAUGGACACUGGCCCCAAGAACUGAUAAGACUCCAGUGGGGGACCACCACAUUCAUAGCCCCGUCACAGGAAGU", "RBNS enrichment (R)": 0.632}
{"Sequence": "CCACAUUACCAUCAAGCCCUUGACAUUCGCAGCACUUGCUGUGGGGAAAGCAGGCCAAGAACUUGUCAUGUGCCCCAUCCACUUCGAGGCUGGAUGGGAUGGGGCUCCAA", "RBNS enrichment (R)": 0.637}
{"Sequence": "AACGAUAACAUUUUAAGGACUAAUAUUGCUGAUACUUGAAUAAUCAAUCUCUACUAGGUUAUAAGUAGUAUACACAGAUUUACCCUGCCCUUGAACUUGAAGGACAUUAA", "RBNS enrichment (R)": 0.294}
{"Sequence": "GAAAGCAGGCUGAGGUUAUUAUUGCUAACACACCUCAGCCGAGCAGGCUAUGUACCUCGAAGGGAGGGCCUGGGGGACAAUGUUACCGAGAGGAGAAUGUGAGCACAUUU", "RBNS enrichment (R)": 1.53}
{"Sequence": "GGCUGGGGUAGAAACUGGUGUCUGCUCUGGUGUGAUCUGAAAAGGCGUCUUCACUGCUUUAUCUCAUGAUGCUUGCUUGUAAAACUUGAUUUUAGUUUUUCAUUUCUCAA", "RBNS enrichment (R)": 0.534}
{"data": "Series 2", "target": "RING finger protein unkempt homolog, zinc fingers 1-6, SBP tag (UNK, Homo sapiens, UniProt Q9C0B0, residues 30-357)", "method": "RNA Bind-n-Seq", "molecule type": "RNA", "matrix": "in vitro", "concentration": "100 nM", "setting": "RNA with constant flanks, vertebrate orthologous sites, ends assumed", "relative to": "input RNA pool", "reading": "higher = stronger binding", "constant ends, left off below": "GGGAGUUCUACAGUCCGACGAUC … CAACAGAGGAUUGAGCAUCA", "chain of UniProt Q9C0B0 (30-357, looked up)": "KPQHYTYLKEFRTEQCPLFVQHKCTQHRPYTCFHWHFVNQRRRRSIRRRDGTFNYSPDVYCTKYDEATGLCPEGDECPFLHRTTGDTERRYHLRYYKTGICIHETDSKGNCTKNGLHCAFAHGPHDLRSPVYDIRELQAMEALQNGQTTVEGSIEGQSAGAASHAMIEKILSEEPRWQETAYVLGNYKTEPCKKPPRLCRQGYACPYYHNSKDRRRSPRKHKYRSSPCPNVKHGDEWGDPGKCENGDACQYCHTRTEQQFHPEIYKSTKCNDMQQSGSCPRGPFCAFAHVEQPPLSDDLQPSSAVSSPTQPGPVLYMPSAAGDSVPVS"}
{"Sequence": "UGUGAGCGUCUACAGACAGCUCACCAUUUUUGUCCUGUAUCUGUAAACACUUUCUGUUCUUAGUCUUUUUCUUGUAAAAUUGAUGUUCUUUAAAAUCGUUAAUGUAUCACAGGGCUUAUG", "bound/input enrichment": "0.506 ratio"}
{"Sequence": "CCCUCUUAACCCCAUAUCUUCUGUUUCAUAGUGCAGAAGUAUUCUUUUCAAUUACAUUAUUAGUGGACUUGUUUUAAUUUUAGAGAAACUUUCAGUACAGAUACUGUGAGCUUACAUGGA", "bound/input enrichment": "3.61 ratio"}
{"Sequence": "GAUAUUGAAUAGUAUUAAACAUUUUCGUCUUCCUUUAUCUUUUAUCCCCUACCCAAUAUUUAGUCUACUUUUUAAAAUUUCAGACUUCACUGCUCUUUGAACUGAUAGUUCCAGUUUUCA", "bound/input enrichment": "1.17 ratio"}
{"Sequence": "GGGGCAGCCAGUGGGGAAAUCCCUGCCUUGGCCACCUGUCCGCUCCCUGCCACCUGCCCUUAGUUAUUUUUUUUUAACCACCACAUGAUUAUAGUUGGCAUUGUCCACUCAGCAAUGGGA", "bound/input enrichment": "3.23 ratio"}
{"Sequence": "CAACGCCAUGGUGGAAGGCUCUGAGCUCAAAAAGGUCCGCUCCAACUCCAGGGUGUAUCACCGAUACUUCCUUUUGGAUGCUGAUAUGCAGUCUCUCCGCUGGGAGCCUUCGAAAAAGGA", "bound/input enrichment": "0.198 ratio"}
{"Sequence": "UUUUGUUGAUCAGGUCUGUAAAUGUGUACUAAAAAAAUCAGAGUUUAUUUAUGAACAGAAUAGUUUAUUUAAAGAGAAGGUCUUUCCUCAUUGAUAUUGUGGUAUGCAUCAAUUCCAUUU", "bound/input enrichment": "0.429 ratio"}
{"Sequence": "GCUGCCGCAGCCCUGGCGCCGGCCGUUCCAGUUCUUAGAGUGUUCUCUUGCUUGUAGUCUCUAGGGGUCAGGUGGGUUGUGCACACCUCUGAGGCAGGAGCUUAGGGGCCCAUCUCAUAU", "bound/input enrichment": "0.621 ratio"}
{"Sequence": "CCGAAAGGCCAAAUUCCCUCCUCCCUCCUACUGCUUCUACCAACUGGAAGCACAGAAAACUAGAAUUUCAUUUAUUUUUUUUUUUAAUGUUGAUUUCUUGUAACAUCCAAUAGGAAUGCU", "bound/input enrichment": "2 ratio"}
{"Sequence": "AUUUCCCGUUUACCCAGUGACACUUUUUACUGAUUUCAUUUCCAUGCAUCUCUUUAAACUUGCCAGUUUUUACCCUCUACUGCACCCUGAAAAGACUGAGGAUGAUCUGAAAGGUGUUUU", "bound/input enrichment": "0.546 ratio"}
{"Sequence": "AAUUGAACAAAAACGUUUCCACUGGGUUUUGCCUGUAAGAAAAAAAUGUACCCGAGCACAUAGAGCUUUUUAAUAGCACUAACCAAUGCCUUUUUAGAUGUAUUUUUGAUGUAUAUAUCU", "bound/input enrichment": "0.725 ratio"}
{"data": "Series 3", "target": "Histone acetyltransferase KAT6A, both winged helices, GST fusion (KAT6A, Homo sapiens, UniProt Q92794, residues 1-181)", "method": "protein binding microarray", "molecule type": "double-stranded DNA, one strand shown", "matrix": "in vitro", "concentration": "not given", "setting": "8-mer, flanks averaged, mean of 2 arrays, mostly near background", "relative to": "not given", "reading": "higher = stronger binding", "Construct (chain)": "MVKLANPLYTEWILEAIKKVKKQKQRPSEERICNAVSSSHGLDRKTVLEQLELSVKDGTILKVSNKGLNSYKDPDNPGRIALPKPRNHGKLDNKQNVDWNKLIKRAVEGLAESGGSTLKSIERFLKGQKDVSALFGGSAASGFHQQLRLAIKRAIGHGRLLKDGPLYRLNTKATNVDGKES"}
{"Sequence": "CGAAATCC", "E-score": -0.0246}
{"Sequence": "GCGCGTTA", "E-score": 0.35}
{"Sequence": "CAGCCCCG", "E-score": 0.127}
{"Sequence": "CCATCTTA", "E-score": -0.0582}
{"Sequence": "ACCACTCA", "E-score": -0.181}
{"Sequence": "AACAAGTG", "E-score": -0.0656}
{"Sequence": "AAGGTTAA", "E-score": 0.0353}
{"data": "Further values, each from its own experiment"}
{"Molecule": "PhoQ, residues 284 288 289 292 302 303 TAVSDG", "target": "PhoP, residues 12 14 15 18 19 STWGI (Escherichia coli, UniProt P23836)", "assay": "Sort-seq, item: YFP reporter", "system": "E. coli", "conditions": "PhoQ-PhoP variant library, together with: 10 µM Mg2+", "how to read": "relative to: high Mg2+ state, higher = stronger signaling", "quantity": "fold induction", "result": 2.14}
{"note": "Excerpt of the above (series 2):"}
{"Sequence": "AUUUCCCGUUUACCCAGUGACACUUUUUACUGAUUUCAUUUCCAUGCAUCUCUUUAAACUUGCCAGUUUUUACCCUCUACUGCACCCUGAAAAGACUGAGGAUGAUCUGAAAGGUGUUUU", "bound/input enrichment": "0.546 ratio"}
